Measurements collected from several papers.
Protocols differ between the studies behind these lines.
Effect on: metabolic stability
Medium: liver microsomes

Oc1cc2nc(c1)CNCc1cc(O)cc(n1)CNC2  microsomal CLint (mouse): 5.4 µL/min/mg
COC(=O)c1ccc2c(c1)NC(=O)/C2=C(\Nc1ccc2c(c1)CCN2C(=O)CN1CCOCC1)c1ccccc1  microsomal CLint (CD-1 mouse; 10 µM, pH 7.4): 40 µL/min/mg
CCCCCCCCN(CCC(=O)Nc1ccccc1)C(=O)c1ccccn1  microsomal CLint (male CD-1 mouse; 1 µM): 144 µL/min/mg
CNC(=O)C1CCN(c2ccccc2NC(=O)c2ccc(-c3cc(O)ccc3C)c(C)c2)CC1  microsomal CLint (mouse; 2 µM): 230 µL/min/mg
COc1cc2c(=O)c(C(=O)NCCNCCO)cn(Cc3ccccc3)c2cc1OCc1ccc(C(C)(C)C)cc1  microsomal CLint (male CD-1 mouse; 1 µM): < 11.6 µL/min/mg
CCc1nc(N)nc(N)c1C#CC(C)c1cc(F)cc(-c2cc(C)nc(C)c2)c1 (racemic)  microsomal CLint (mouse): ~28 µL/min/mg
COc1cc(C)c(-c2ccc(O)c3c2C[C@@H](C)N[C@@H]3C)c2cccc(O)c12 (single isomer, unassigned)  microsomal CLint (male CD-1 mouse; 1 µM): 95.1 µL/min/mg
Cc1cc(N2CCC(C#N)(C3(C)CC3)C2=O)cc(C(=O)NCc2cc(F)cc(-c3cnn(C)c3)c2)n1 (racemic)  microsomal CLint (mouse; 0.5 µM): 71 µL/min/mg
CNC(=O)C1CCN(c2cc(C)c(F)cc2NC(=O)c2ccc(-c3cc(O)ccc3C)c(C)c2)CC1  microsomal CLint (mouse; 2 µM): 37 µL/min/mg
CCc1nc(N)nc(N)c1C#C[C@H](C)c1cc(-c2cc(C)nc(C)c2)ccc1Cl  microsomal CLint (mouse): 18 µL/min/mg
NC(=O)c1c(F)ccc(OCc2nc3cc(Cl)cnc3s2)c1F  microsomal CLint (mouse; 10 µM): 14.5 µL/min/mg
C[N+]1(CC(=O)OC2CCCCCCCCCCC2)CCCCC1  microsomal CLint (mouse): 306 µL/min/mg
O=C(c1ccc(-c2cc3nccc(-c4ccc5cnccc5c4)c3o2)cc1)N1CCNCC1  microsomal CLint (mouse): 180 µL/min/mg
CCn1cc(C(=O)NCCNCCO)c(=O)c2cc(OCc3ccc(C(C)(C)C)cc3)c(Cl)cc21  microsomal CLint (male CD-1 mouse; 1 µM): < 11.6 µL/min/mg
CNC(=O)c1cc(C)ccc1NC(=O)c1ccc(-c2cc(O)ccc2C)c(C)c1  microsomal CLint (mouse; 2 µM): 33 µL/min/mg
O=C(NCCNCCO)c1cn(Cc2ccccc2)c2c(Cl)c(OCc3ccc(C(F)(F)F)cc3)c(Cl)cc2c1=O  microsomal CLint (male CD-1 mouse; 1 µM): < 11.6 µL/min/mg
[2H]C([2H])([2H])Oc1ccc(-c2cc(C)nc(C)c2)cc1C(C)C#Cc1c(N)nc(N)nc1CC (racemic)  microsomal CLint (mouse): ~154 µL/min/mg
O=C(c1cc2ccc(Cl)cc2s1)N(c1ccc(OCCN2CCCC2)cc1)c1ccc(OCCN2CCCC2)cc1  microsomal CLint (female mouse): 8 µL/min/mg

Excerpt of the above:
Oc1cc2nc(c1)CNCc1cc(O)cc(n1)CNC2  microsomal CLint (mouse): 5.4 µL/min/mg
